Earlier results as cited in several papers.
Each line is one published result; not all experiments were run side by side. Converted amounts (≈) assume the structure as drawn.

| Structure (SMILES) | assay | test system | conditions | scale | quantity | result |
| --- | --- | --- | --- | --- | --- | --- |
| CC(O)C(C)n1ncn(-c2ccc(N3CCN(c4ccc(OCC5COC(Cn6cncn6)(c6ccc(Cl)cc6Cl)O5)cc4)CC3)cc2)c1=O (stereo not drawn) |  | human, blood |  |  | blood-to-plasma ratio | 0.58 |
| CC(C)c1nc(N(C)S(C)(=O)=O)nc(-c2ccc(F)cc2)c1/C=C/[C@@H](O)C[C@@H](O)CC(=O)O |  | plasma |  |  | plasma half-life | ~19 h |
| Cc1cn([C@H]2C[C@H](N=[N+]=[N-])[C@@H](CO)O2)c(=O)[nH]c1=O |  | mouse | 30 mg/kg |  | oral bioavailability | 82% |
| CC(C)(CO)c1cc2cc(NC(=O)C3(c4ccc5c(c4)OC(F)(F)O5)CC3)c(F)cc2n1C[C@@H](O)CO |  | human |  |  | fraction unbound in enterocytes | 1 |
| CN(C)C(=O)c1cc2cnc(Nc3ccc(N4CCNCC4)cn3)nc2n1C1CCCC1 | item: neutropenia | advanced solid tumour or lymphoma patients | dose not given, 3 weeks on 1 week off, any grade | baseline: patients | adverse event incidence | 35.1% |
| CC(C)(C)NCC(O)c1cc(O)cc(O)c1 (stereo not drawn) |  | human |  |  | systemic clearance | 3.67 mL/min/kg |
| Cc1ccc(-c2cc(C(F)(F)F)nn2-c2ccc(S(N)(=O)=O)cc2)cc1 |  | plasma | concentration not given, total, steady state |  | Cmax | 1850 nM |
| Cn1c(=O)c2c(ncn2C)n(C)c1=O |  | human | dose not given |  | volume of distribution | 0.6 L/kg |
| FC(F)(F)c1ccc(CNc2ccc(Cc3c[nH]c4ncc(Cl)cc34)cn2)cn1 |  | patients, plasma | oral, 400 mg once daily, day 15, mean |  | AUC(0-24 h) | 41900 ng·h/mL |
| CC(C)NCC(O)COc1cccc2ccccc12 (stereo not drawn) |  | human | average of reported values |  | plasma clearance | 12.3 mL/min/kg |
| CNC(=O)c1c(C)oc2cc(Oc3ncnc4cc(OC)c(OC)cc34)ccc12 |  | human | dose not given |  | elimination half-life | ~42 h |
| C=C(c1ccc(C(=O)O)cc1)c1cc2c(cc1C)C(C)(C)CCC2(C)C |  | FaSSIF | literature value |  | solubility | 6.97 µg/mL (≈ 20 µM) |
| CCCCCCCN(CC)CCCC(O)c1ccc(NS(C)(=O)=O)cc1 (stereo not drawn) |  | human |  |  | free Cmax | 8.12 nM |
| N#CCNC(=O)c1ccc(-c2ccnc(Nc3ccc(N4CCOCC4)cc3)n2)cc1 | item: compound | human, feces | oral, dose not given, single dose 14C-labelled | baseline: dose | excreted dose | 12.6% |
| [Na+].[Na+].[O-][N+]([O-])=NO |  |  | pH 7.4, 37 °C |  | HNO release half-life | 2.5 min |
| NC(=O)CC[C@@H]1NC(=O)[C@H](Cc2ccccc2)NC(=O)[C@H](Cc2ccc(O)cc2)NC(=O)CCSSC[C@@H](C(=O)N2CCC[C@H]2C(=O)N[C@H](CCCN=C(N)N)C(=O)NCC(N)=O)NC(=O)[C@H](CC(N)=O)NC1=O |  | human, von Willebrand disease patients | intravenous, 0.3 µg/kg |  | volume of distribution | 25.9 L |
| O=C(O)c1cc(/N=N/c2ccc(S(=O)(=O)Nc3ccccn3)cc2)ccc1O |  | water |  |  | solubility | < 1000 µg/mL |
| CC(=O)O[C@H]1C(=O)[C@@]2(C)[C@H]([C@H](OC(=O)c3ccccc3)[C@]3(O)C[C@H](OC(=O)[C@H](O)[C@@H](NC(=O)c4ccccc4)c4ccccc4)C(C)=C1C3(C)C)[C@]1(OC(C)=O)CO[C@@H]1C[C@@H]2O |  | advanced esophageal cancer patients | 80 mg/m2 weekly, monotherapy |  | grade 4 peripheral neuropathy incidence | 0% |
| CC(=O)Oc1cc(C(F)(F)F)ccc1C(=O)O |  | water |  |  | solubility | < 1000 µg/mL |

| Structure (SMILES) | assay | test system | conditions | scale | quantity | result |
| --- | --- | --- | --- | --- | --- | --- |
| Cn1c(Cn2ccc(C(F)(F)F)c(Oc3cc(Cl)cc(C#N)c3)c2=O)n[nH]c1=O |  | human | up to 48 weeks, trial | baseline: subjects | back pain incidence | 5.5% |
| Cc1nc2c([nH]1)-c1ccccc1N(C(=O)c1ccc(NC(=O)c3ccccc3-c3ccccc3)cc1)CC2.Cl |  | water |  |  | solubility | < 1000 µg/mL |
| COc1cccc2c1C(=O)c1c(O)c3c(c(O)c1C2=O)C[C@@](O)(C(=O)CO)C[C@@H]3O[C@H]1C[C@H](N)[C@H](O)[C@H](C)O1 |  | human |  |  | free Cmax | 419 nM |
| C[Si]1(C)O[Si](C)(C)O[Si](C)(C)O[Si](C)(C)O[Si](C)(C)O1 | slow-stirring method | 1-octanol/water | 25 °C |  | log KOW | 8.03 |
| CN[C@@H](C)C(=O)N[C@H]1CN(S(=O)(=O)c2cccc(S(=O)(=O)N3CC[C@H]4CC[C@@H](C(=O)NC(c5ccccc5)c5ccccc5)N4C(=O)[C@@H](NC(=O)[C@H](C)NC)C3)c2)CC[C@H]2CC[C@@H](C(=O)NC(c3ccccc3)c3ccccc3)N2C1=O |  | human | concentration not given |  | accumulation | no effect |
| CC(C)Cc1ccc(C(C)C(=O)O)cc1 (stereo not drawn) |  | human |  |  | free Cmax | 2960 nM |
| C=CC(=O)N1CCC(CNc2ncnc(N)c2-c2ccc(Oc3ccccc3)cc2)CC1 |  | human | 75 mg once daily |  | volume of distribution | 620 L |
| N#Cc1ccc(C(c2ccc(C#N)cc2)n2cncn2)cc1 |  | supercritical CO2 |  |  | crossover pressure | 160 to 180 bar |
| Cc1nn(C)cc1S(=O)(=O)NC(=O)c1ccc(-n2ccc(OCC(C)(C)C(F)(F)F)n2)nc1N1C[C@@H](C)CC1(C)C |  | human reference individuals, plasma |  |  | fraction unbound | 0.007 |
| Oc1ccc(C(c2ccc(O)cc2)(C(F)(F)F)C(F)(F)F)cc1 | item: free (unconjugated) compound | Sprague-Dawley rat, female | oral gavage, 110 mg/kg |  | AUC | 4.38 µM·h |
| CC(C)[C@H]1CC[C@H](C(=O)N[C@H](Cc2ccccc2)C(=O)O)CC1 |  | plasma | concentration not given |  | unbound Cmax | 230 nM |
| CNCc1cc(-c2ccccc2F)n(S(=O)(=O)c2cccnc2)c1 |  | human | 20 mg maintenance dose |  | observed Ctrough | 1.67 ng/mL |
| c1cc2nc(c1)CNCCNCCNC2 |  | aqueous solution | Cu(II) 1 µM, ligand 10 µM |  | pCu | 16.7 |
| C[C@@H](Oc1ccc(S(C)(=O)=O)cc1C(=O)N1C[C@@H]2C[C@]2(c2cc(C(F)(F)F)on2)C1)C(F)(F)F |  | human, urine | dose not given, 336 h | baseline: dose | urinary excretion unchanged | ~7.5% |
| CCCS(=O)(=O)Nc1ccc(F)c(C(=O)c2c[nH]c3ncc(-c4ccc(Cl)cc4)cc23)c1F |  | FaSSIF | literature value |  | solubility | 5.4 µg/mL (≈ 11 µM) |
| Nc1cccc2c1C(=O)N(C1CCC(=O)NC1=O)C2=O (stereo not drawn) |  | water |  |  | solubility | < 1000 µg/mL |
| CC(C)NCC(O)COc1cccc2ccccc12 (stereo not drawn) |  | plasma |  |  | free Cmax | 956 nM |
| COc1ccc(Cl)cc1C(=O)NCCc1ccc(S(=O)(=O)NC(=O)NC2CCCCC2)cc1 |  | water |  |  | solubility | < 1000 µg/mL |
| Cc1cn([C@H]2C=C[C@@H](CO)O2)c(=O)[nH]c1=O |  | human | 2.67 mg/kg |  | oral bioavailability | > 80% |

| Structure (SMILES) | assay | test system | conditions | scale | quantity | result |
| --- | --- | --- | --- | --- | --- | --- |
| Cc1cc(-c2nccc3c2ccn3CC(=O)Nc2ccc(-c3cnccn3)cn2)ccn1 |  | dog | 3 mg/kg/day, 1 month, repeat dosing |  | AUC(0-24 h), total | 0.99 µM·h |
| CCOc1cc(CC(=O)N[C@@H](CC(C)C)c2ccccc2N2CCCCC2)ccc1C(=O)O |  | supercritical CO2 |  |  | crossover pressure | 180 to 200 bar |
| N=C(N)c1ncn([C@@H]2O[C@H](CO)[C@@H](O)[C@H]2O)n1 |  | human | 600 mg |  | oral bioavailability | 66% |
| CC(C)c1nc(N(C)S(C)(=O)=O)nc(-c2ccc(F)cc2)c1/C=C/[C@@H](O)C[C@@H](O)CC(=O)O |  | human liver microsomes | Simcyp input parameter |  | CLint additional | 17 µL/min/mg protein |
| CCCN1CCCC[C@H]1C(=O)Nc1c(C)cccc1C |  | plasma |  |  | free Cmax | 97.4 nM |
| N#C[C@@]1(c2ccc3c(N)ncnn23)O[C@H](CO)[C@@H](O)[C@H]1O |  | dog, plasma | intravenous, 2 mg/kg, 1 h, solution |  | plasma concentration | 1350 ng/mL |
| CO/N=C(\C(=O)N[C@@H]1C(=O)N2C(C(=O)O)=C(CSc3nc(=O)c(=O)[nH]n3C)CS[C@H]12)c1csc(N)n1 |  | human |  |  | free Cmax | 23200 nM |
| CCN(CC)CCNC(=O)c1c(C)[nH]c(/C=C2\C(=O)Nc3ccc(F)cc32)c1C |  | plasma | concentration not given, total, steady state |  | Cmax | 210 nM |
| CCCc1cc2cc(-n3nc(C)c4c3CC(C)(C)CC4=O)cc(N3CCC(O)CC3)c2c(=O)[nH]1 |  |  | pH 6.8 |  | aqueous solubility | 0.014 µM (≈ 6.48 ng/mL) |
| CC[C@H](C)CCCCC(=O)N[C@@H](CCN)C(=O)N[C@H](C(=O)N[C@@H](CCN)C(=O)N[C@H]1CCNC(=O)[C@H]([C@@H](C)O)NC(=O)[C@H](CCN)NC(=O)[C@H](CCN)NC(=O)[C@H](CC(C)C)NC(=O)[C@@H](Cc2ccccc2)NC(=O)[C@H](CCN)NC1=O)[C@@H](C)O |  | rat, urine | dose not given, 48 h |  | unchanged urinary excretion | < 1% |
| COc1cc(Cc2cnc(N)nc2N)cc(OC)c1OC |  | human |  |  | Vd | 0.72 L/kg |
| Cc1ccc([C@@H]2O[C@H](CO)[C@@H](O)[C@H](O)[C@H]2O)cc1Cc1ccc(-c2ccc(F)cc2)s1 |  | human, preserved kidney function | 100 mg, steady state, median |  | tmax | 1 h |
| CC1=C(/C=C/C(C)=C/C=C/C(C)=C/C(=O)O)C(C)(C)CCC1 |  | water |  |  | solubility | < 1000 µg/mL |
| COCCc1ccc(OCC(O)CNC(C)C)cc1 (stereo not drawn) |  | human fasted | 300 mg multiple doses, day 7, mean |  | AUC(0-24 h) | 3310 ng·h/mL |
| CC(C)n1nc(-c2ccc3oc(N)nc3c2)c2c(N)ncnc21 |  | patients | dose not given, dose-escalation phase |  | hyperglycemia incidence | 65% |
| CO[C@H]1O[C@H](COS(=O)(=O)O)[C@@H](O[C@@H]2O[C@@H](C(=O)O)[C@@H](O[C@H]3O[C@H](COS(=O)(=O)O)[C@@H](O[C@@H]4O[C@H](C(=O)O)[C@@H](O[C@H]5O[C@H](COS(=O)(=O)O)[C@@H](O)[C@H](O)[C@H]5NS(=O)(=O)O)[C@H](O)[C@H]4O)[C@H](OS(=O)(=O)O)[C@H]3NS(=O)(=O)O)[C@H](O)[C@H]2OS(=O)(=O)O)[C@H](O)[C@H]1NS(=O)(=O)O |  | human | concentration not given, clinical |  | diarrhoea incidence | < 3% |
| CO[C@H]1/C=C/O[C@@]2(C)Oc3c(C)c(O)c4c(O)c(c(/C=N/N5CCN(C)CC5)c(O)c4c3C2=O)NC(=O)/C(C)=C\C=C\[C@H](C)[C@H](O)[C@@H](C)[C@@H](O)[C@@H](C)[C@H](OC(C)=O)[C@@H]1C |  | plasma | concentration not given, total, steady state |  | Cmax | 13100 nM |
| CC(C)[C@H](N)C(=O)OCCOCn1cnc2c(=O)[nH]c(N)nc21 |  | human |  |  | oral bioavailability | 83% |
| C[Si](C)(C)O[Si](C)(C)C | HPLC retention correlation | 1-octanol/water | 25 °C |  | log KOW | 4.2 |

A few entries again:
| Structure (SMILES) | assay | test system | conditions | scale | quantity | result |
| --- | --- | --- | --- | --- | --- | --- |
| C[C@@H](Oc1ccc(S(C)(=O)=O)cc1C(=O)N1C[C@@H]2C[C@]2(c2cc(C(F)(F)F)on2)C1)C(F)(F)F |  | human, urine | dose not given, 336 h | baseline: dose | urinary excretion unchanged | ~7.5% |
| CCCS(=O)(=O)Nc1ccc(F)c(C(=O)c2c[nH]c3ncc(-c4ccc(Cl)cc4)cc23)c1F |  | FaSSIF | literature value |  | solubility | 5.4 µg/mL (≈ 11 µM) |
| Nc1cccc2c1C(=O)N(C1CCC(=O)NC1=O)C2=O (stereo not drawn) |  | water |  |  | solubility | < 1000 µg/mL |
| CC(C)NCC(O)COc1cccc2ccccc12 (stereo not drawn) |  | plasma |  |  | free Cmax | 956 nM |
| COc1ccc(Cl)cc1C(=O)NCCc1ccc(S(=O)(=O)NC(=O)NC2CCCCC2)cc1 |  | water |  |  | solubility | < 1000 µg/mL |
| Cc1cn([C@H]2C=C[C@@H](CO)O2)c(=O)[nH]c1=O |  | human | 2.67 mg/kg |  | oral bioavailability | > 80% |
